Measurements collected from several papers.
Each line is one published result; not all experiments were run side by side. ± marks the error that the study gave.

`N=C(N)NCCC[C@@H]1NC(=O)[C@H](CCCCNC(=O)CNC(=O)CNC(=O)CNC(=O)CC[C@H](NC(=O)CNC(=O)CNC(=O)CNC(=O)c2ccc(NN=Cc3ccccc3S(=O)(=O)O)nc2)C(=O)NCC(=O)NCC(=O)NCC(=O)NCCCC[C@@H]2NC(=O)[C@@H](Cc3ccccc3)NC(=O)[C@H](CC(=O)O)NC(=O)CNC(=O)[C@H](CCCNC(=N)N)NC2=O)NC(=O)[C@@H](Cc2ccccc2)NC(=O)[C@H](CC(=O)O)NC(=O)CNC1=O` [technetium-99m labelled] has a tissue uptake of 1.05 ± 0.42 %ID/g (athymic nu/nu mouse, female, MDA-MB-435 xenograft, muscle; intravenous, 120 min).
`N=C(N)NCCC[C@@H]1NC(=O)[C@H](CC(=O)NC23CNCCNCC(N)(CNCCNC2)CNCCNC3)NC(=O)[C@@H](Cc2ccccc2)NC(=O)[C@H](CC(=O)O)NC(=O)CNC1=O` [copper-64 labelled] gave a tissue uptake of 0.23 ± 0.09 %ID/g (Nu/Nu mouse, male, tumour-bearing, heart; intravenous, 10 µCi, 4 h).
`CSCC[C@H](NC(=O)[C@H](CC(C)C)NC(=O)[C@H](Cc1c[nH]cn1)NC(=O)CNC(=O)[C@@H](NC(=O)[C@H](C)NC(=O)[C@H](Cc1c[nH]c2ccccc12)NC(=O)[C@H](CCC(N)=O)NC(=O)CCCCCNC(=O)CNC(=O)CNC(=O)CNC(=O)CSC(C)=O)C(C)C)C(N)=O` [technetium-99m labelled] gave a tissue uptake of 0.51 ± 0.09 %ID/g (Swiss mouse, bone; intravenous, 18.5 MBq, 5 min).
For `CCCC[C@H](NC(=O)CCCCCCCNC(=O)c1ccc(NN)nc1)C(=O)N[C@H]1CC(=O)NCCCC[C@@H](C(N)=O)NC(=O)[C@H](Cc2c[nH]c3ccccc23)NC(=O)[C@H](CCCNC(=N)N)NC(=O)[C@@H](Cc2ccccc2)NC(=O)[C@H](Cc2c[nH]cn2)NC1=O` [technetium-99m labelled], the tissue uptake was 0.06 ± 0.05 %ID/g (C57 mouse, B16/F1 melanoma, muscle; 2 h, with: NDP-MSH 10 µg (6.07 nmol) co-injected).
`CCCC[C@H](NC(=O)CNC(=O)CNC(=O)c1ccc(NN)nc1)C(=O)N[C@H]1CC(=O)NCCCC[C@@H](C(N)=O)NC(=O)[C@H](Cc2c[nH]c3ccccc23)NC(=O)[C@H](CCCNC(=N)N)NC(=O)[C@@H](Cc2ccccc2)NC(=O)[C@H](Cc2c[nH]cn2)NC1=O` [technetium-99m labelled] gave a tissue uptake of 2.94 ± 0.14 %ID/g (C57 mouse, B16/F1 melanoma-bearing, skin; intravenous, 0.5 h).
The tissue uptake of `CCCC[C@H](NC(=O)[C@H](Cc1cccs1)NC(=O)[C@H](Cc1c[nH]cn1)NC(=O)CCNC(=O)[C@@H](NC(=O)[C@H](C)NC(=O)[C@H](Cc1c[nH]c2ccccc12)NC(=O)[C@H](CCC(N)=O)NC(=O)[C@H](Cc1cccs1)NC(=O)CN1CCC(NC(=O)CN(CCN(CCN(CC(=O)O)CC(=O)O)CC(=O)O)CC(=O)O)CC1)C(C)C)C(N)=O` [indium-111 labelled] is reported as 1.6 ± 0.6 %ID/g (Swiss nu/nu mouse, male, PC-3 tumour xenograft, colon; intravenous, 10 pmol, 4 h).
For `N=C(N)NCCC[C@@H]1NC(=O)[C@H](CCCCNC(=O)CCOCCOCCOCCOCCNC(=O)CC[C@H](NC(=O)CCOCCOCCOCCOCCNC(=O)CC[C@H](NC(=O)CN2CCN(CC(=O)O)CCN(CC(=O)O)CCN(CC(=O)O)CC2)C(=O)NCCOCCOCCOCCOCCC(=O)N[C@@H](CCC(=O)NCCOCCOCCOCCOCCC(=O)NCCCC[C@@H]2NC(=O)[C@@H](Cc3ccccc3)NC(=O)[C@H](CC(=O)O)NC(=O)CNC(=O)[C@H](CCCNC(=N)N)NC2=O)C(=O)NCCOCCOCCOCCOCCC(=O)NCCCC[C@@H]2NC(=O)[C@@H](Cc3ccccc3)NC(=O)[C@H](CC(=O)O)NC(=O)CNC(=O)[C@H](CCCNC(=N)N)NC2=O)C(=O)NCCOCCOCCOCCOCCC(=O)NCCCC[C@@H]2NC(=O)[C@@H](Cc3ccccc3)NC(=O)[C@H](CC(=O)O)NC(=O)CNC(=O)[C@H](CCCNC(=N)N)NC2=O)NC(=O)[C@@H](Cc2ccccc2)NC(=O)[C@H](CC(=O)O)NC(=O)CNC1=O` [indium-111 labelled], the tissue uptake was 0.4 %ID/g (athymic nude mouse U-87 MG xenograft, heart; intravenous, 1 h, with: RGD2 co-injected 14 mg/kg).
For `CSCC[C@H](NC(=O)[C@H](CC(C)C)NC(=O)[C@H](Cc1c[nH]cn1)NC(=O)CNC(=O)[C@@H](NC(=O)[C@H](C)NC(=O)[C@H](Cc1c[nH]c2ccccc12)NC(=O)[C@H](CCC(N)=O)NC(=O)[C@H](CC(N)=O)NC(=O)CNC(=O)[C@H](Cc1ccc(O)cc1)NC(=O)[C@H](CCCNC(=N)N)NC(=O)[C@H](CCC(N)=O)NC(=O)[C@@H]1CCCN1C(=O)CN1CCN(CC(=O)O)CCN(CC(=O)O)CCN(CC(=O)O)CC1)C(C)C)C(N)=O` [indium-111 labelled], the tissue uptake was 2.1 ± 0.4 %ID/g (Swiss nu/nu mouse, male, PC-3 tumour xenograft, colon; intravenous, 10 pmol, 1 h).
With `N=C(N)NCCC[C@@H]1NC(=O)[C@H](CCCCNC(=O)CCC(NC(=S)Nc2ccc(CC3CN(CC(=O)O)CCN(CC(=O)O)CCN(CC(=O)O)CCN3CC(=O)O)cc2)C(=O)NCCCC[C@@H]2NC(=O)[C@@H](Cc3ccc(O)cc3)NC(=O)[C@H](CC(=O)O)NC(=O)CNC(=O)[C@H](CCCNC(=N)N)NC2=O)NC(=O)[C@@H](Cc2ccc(O)cc2)NC(=O)[C@H](CC(=O)O)NC(=O)CNC1=O` (some centres unmarked) [scandium-44 labelled] the tissue uptake was 3.93 ± 1.19 %ID/g (PET imaging; female athymic nude mouse, U-87 MG xenograft tumour; intravenous, 5.5 to 7.4 MBq, 0.5 h).
`N=C(N)NCCC[C@@H]1NC(=O)[C@H](CCCCNC(=O)CNC(=O)CNC(=O)CNC(=O)c2ccc(NN=Cc3ccccc3S(=O)(=O)O)nc2)NC(=O)[C@@H](Cc2ccccc2)NC(=O)[C@H](CC(=O)O)NC(=O)CNC1=O` [technetium-99m labelled] gave a tissue uptake of 5.62 ± 1.12 %ID/g (athymic nu/nu mouse, female, U-87 MG glioma xenograft, tumour; intravenous, 2 µCi, 60 min).
For `N=C(N)NCCC[C@@H]1NC(=O)[C@H](CCCCNC(=O)CCOCCOCCOCCOCCNC(=O)CC[C@H](NC(=O)CCOCCOCCOCCOCCNC(=O)[C@H](CCCCNC(=O)c2ccc(NN)nc2)NC(=O)c2ccc(NN)nc2)C(=O)NCCOCCOCCOCCOCCC(=O)NCCCC[C@@H]2NC(=O)[C@@H](Cc3ccccc3)NC(=O)[C@H](CC(=O)O)NC(=O)CNC(=O)[C@H](CCCNC(=N)N)NC2=O)NC(=O)[C@@H](Cc2ccccc2)NC(=O)[C@H](CC(=O)O)NC(=O)CNC1=O` [technetium-99m labelled], the tissue uptake was 8.59 ± 1.52 %ID/g (athymic nude mouse, female, U-87 MG xenograft, tumor; intravenous, 0.1 MBq, 1 h).
